{"data": "Results of several laboratories", "note": "Each numbered part is a random draw from the data of one study; scales do not carry over between parts. Substitutions count along the parent as printed."}
{"data": "Block 1", "target": "UBE2D3 UBC core domain (UniProt P61077)", "technique": "yeast two-hybrid", "medium": "yeast", "notes": "mostly zero background", "baseline": "not given", "direction": "higher = stronger interaction", "B1": "RNF19A RING domain (UniProt Q9NV58); chain ISKQIGDFIECPLCLLRHSKDRFPDIMTCHHRSCVDCLRQYLRIEISESRVNISCPECTERFNPHDIR", "B2": "MAP3K1 RING domain (UniProt Q13233); chain NSIKDEEEQMCPICLLGMLDEESLTVCEDGCRNKLHHHCMSIWAEECRRNREPLICPLCRSKWRSHDFYS", "B3": "SYTL4 RING domain (UniProt Q96C24); chain RGSQHYSDRTCARCQESLGRLSPKTNTCRGCNHLVCRDCRIQESNGTWRCKVCAKEIELKKAT", "B4": "RNF133 RING domain (UniProt Q8WVZ7); chain DEEINPNGDSCVICFERYKPNDIVRILTCKHFFHKNCIDPWILPHGTCPICKCDILKVLGIQ", "B5": "UBOX5 RING domain (UniProt O94941); chain EQPGSILGPECASCKRVFSPYFKKEPVYQLPCGHLLCRPCLGEKQRSLPMTCTACQRPVASQDVLR", "B6": "SH3RF1 RING domain (UniProt Q7Z6J0); chain DESALLDLLECPVCLERLDASAKVLPCQHTFCKRCLLGIVGSRNELRCPECRTLVGSGVEEL", "sequence of UniProt P61077 (whole entry, looked up)": "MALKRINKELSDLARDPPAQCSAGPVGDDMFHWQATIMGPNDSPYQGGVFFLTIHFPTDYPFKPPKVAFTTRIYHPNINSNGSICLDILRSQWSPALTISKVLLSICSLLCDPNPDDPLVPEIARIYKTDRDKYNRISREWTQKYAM"}
{"Sequence": "B1 (RNF19A RING domain)", "lacZ reporter activity": 0}
{"Sequence": "B2 (MAP3K1 RING domain)", "lacZ reporter activity": 13600}
{"Sequence": "YQNEVDDDLVCHICLQPLLQPLDTPCGHTFCYKCLRNFLQEKDFCPLDRKRLHFKLCKK (LNX2 RING domain (UniProt Q8N448))", "lacZ reporter activity": 0}
{"Sequence": "AVPSGLEENLCKICMDSPIDCVLLECGHMVTCTKCGKRMNECPICRQYVIRAVHVF (RFFL RING domain (UniProt Q8WZ73))", "lacZ reporter activity": 0}
{"Sequence": "B3 (SYTL4 RING domain)", "lacZ reporter activity": 0}
{"Sequence": "B4 (RNF133 RING domain)", "lacZ reporter activity": 17500}
{"Sequence": "PEDRESLKSACVVCLSSFKSCVFLECGHVCSCTECYRALPEPKKCPICRQAITRVIPLY (MUL1 RING domain (UniProt Q969V5))", "lacZ reporter activity": 12500}
{"Sequence": "KLRKLKEAMLCMVCCEEEINSTFCPCGHTVCCESCAAQLQSCPVCRSRVEHVQHVY (MYLIP RING domain (UniProt Q8WY64))", "lacZ reporter activity": 0}
{"Sequence": "B5 (UBOX5 RING domain)", "lacZ reporter activity": 0}
{"Sequence": "B6 (SH3RF1 RING domain)", "lacZ reporter activity": 0}
{"data": "Block 2", "target": "HLA class I histocompatibility antigen, A alpha chain, allele A*80:01 (Homo sapiens, UniProt P04439)", "read-out": "peptide-MHC binding", "molecule type": "peptide", "tested at": "concentration not given"}
{"Sequence": "DLAQDPMLI", "binding": "inactive"}
{"Sequence": "MARPADASM", "binding": "inactive"}
{"Sequence": "DEGFHAATV", "binding": "inactive"}
{"Sequence": "GRGPIRFVL", "binding": "inactive"}
{"data": "Block 3", "target": "CCNB1, cyclin fold, Cln2 fusion (human)", "technique": "yeast growth competition, sequencing", "medium": "yeast", "notes": "strong parent motif", "baseline": "not given", "direction": "higher = stronger binding", "parent": "viral docking peptide; KGVKRKLFAEDSS"}
{"Change": "KGVKRKNFAEDSS [L7N]", "normalised enrichment score": 0.626}
{"Change": "KGVKRKLFAEGSS [D11G]", "normalised enrichment score": 1.6}
{"Change": "KGVFRKLFAEDSS [K4F]", "normalised enrichment score": 0.793}
{"Change": "KGVKRKLFAMDSS [E10M]", "normalised enrichment score": 0.467}
{"Change": "KGVKRKLFFEDSS [A9F]", "normalised enrichment score": 4.3}
{"data": "Single results of other studies", "technique": "cross-linking MS"}
{"Molecule": "BAG6 (Homo sapiens, UniProt P46379)", "partner": "PIK3R4 (Homo sapiens, UniProt Q99570)", "test system": "cell fractions", "setting": "added: DSSO", "quantity": "cross-linked residues", "result": "K1052 to T1037"}
{"Molecule": "PDIA4 (Homo sapiens, UniProt P13667)", "partner": "HSP90B1 (Homo sapiens, UniProt P14625)", "setting": "hits only", "quantity": "interaction screen", "result": "cross-linked"}
{"Molecule": "EXOC3 (Homo sapiens, UniProt O60645)", "partner": "EXOC4 (Homo sapiens, UniProt Q96A65)", "test system": "cell fractions", "setting": "added: DSSO", "quantity": "cross-linked residues", "result": "K40 to K122"}
{"Molecule": "PELP1 (Homo sapiens, UniProt Q8IZL8)", "partner": "WDR18 (Homo sapiens, UniProt Q9BV38)", "test system": "cell fractions", "setting": "added: DSSO", "quantity": "cross-linked residues", "result": "K103 to K389"}
{"note": "A few entries again (block 1):"}
{"Sequence": "PEDRESLKSACVVCLSSFKSCVFLECGHVCSCTECYRALPEPKKCPICRQAITRVIPLY (MUL1 RING domain (UniProt Q969V5))", "lacZ reporter activity": 12500}
{"Sequence": "B6 (SH3RF1 RING domain)", "lacZ reporter activity": 0}
{"Sequence": "KLRKLKEAMLCMVCCEEEINSTFCPCGHTVCCESCAAQLQSCPVCRSRVEHVQHVY (MYLIP RING domain (UniProt Q8WY64))", "lacZ reporter activity": 0}
